{"data": "Assay results gathered from unrelated publications", "note": "Protocols differ between the studies behind these lines. ± marks the error that the study gave."}
{"Compound": "CCc1nnc(-c2c(OC)cc(-c3cnc4cc(-c5cnn(C)c5)ccn34)cc2OC)o1", "assay": "immunohistochemistry, refers to: sclerostin", "test system": "male C57BL/6J mice, tibia", "setting": "oral gavage, dose not given, 3 weeks", "measurement": "protein level", "value": "decreased"}
{"Compound": "CC(=O)N[C@@H](Cc1c[nH]c2ccccc12)C(=O)NCC(=O)N[C@@H](C)C(=O)N[C@H]1CSCC(=O)Nc2ccc(cc2)N=Nc2ccc(c(S(=O)(=O)O)c2)-c2ccc(cc2S(=O)(=O)O)N=Nc2ccc(cc2)NC(=O)CSC[C@@H](C(=O)N[C@@H](CCCNC(=N)N)C(=O)N[C@@H](CCC(=O)O)C(=O)N[C@@H](C)C(=O)N[C@@H](C)C(=O)N[C@@H](C)C(=O)N[C@@H](CCCNC(=N)N)C(=O)N[C@@H](CCC(=O)O)C(=O)N[C@@H](C)C(=O)N[C@@H](CCC(N)=O)C(N)=O)NC(=O)[C@H](C)NC(=O)[C@H](C)NC(=O)[C@H](CCC(=O)O)NC(=O)[C@H](CCCNC(=N)N)NC(=O)[C@H](C)NC(=O)[C@H](C)NC(=O)[C@H](C)NC(=O)[C@H](CCC(=O)O)NC(=O)[C@H](CCCNC(=N)N)NC(=O)[C@H](C)NC(=O)[C@H](C)NC(=O)[C@H](C)NC(=O)[C@H](CCC(=O)O)NC1=O", "assay": "cis-to-trans reversion, UV-Vis absorbance", "test system": "10 mM phosphate buffer", "setting": "pH 7.0, 37 °C, together with: 365 nm irradiation", "measurement": "thermal relaxation half-life", "value": "3.5 ± 0.1 min"}
{"Compound": "COc1ccc2c(c1)C(C)(C)C(/C=C/C1=C(Oc3ccc(C(=O)NCCCCOc4cc(CN(Cc5ccccn5)Cc5ccccn5)cc(CN(Cc5ccccn5)Cc5ccccn5)c4)cc3)C(=C/C=C3/N(CCCCS(=O)(=O)[O-])c4ccc(OC)cc4C3(C)C)CCC1)=[N+]2CCCCS(=O)(=O)[O-].O=[N+]([O-])O.O=[N+]([O-])[O-].O=[N+]([O-])[O-].O=[N+]([O-])[O-].[Zn+2].[Zn+2]", "assay": "photoacoustic imaging", "test system": "BALB/c mouse LPS-induced sterile myositis, inflamed muscle", "setting": "intravenous, dose not given, 12 h", "how to read": "relative to: post- over pre-injection", "measurement": "signal-to-background ratio", "value": "1.07 ± 0.11"}
{"Compound": "CC[C@H](C)[C@H](NC(=O)[C@@H](NC(=O)[C@H](CC(=O)O)NC(C)=O)[C@@H](C)O)C(=O)N[C@@H](CCCNC(=N)N)C(=O)N[C@@H](CC(C)C)C(=O)N[C@@H](CC(C)C)C(=O)N[C@@H](Cc1ccccc1)C(=O)N[C@@H](CCC(N)=O)C(=O)N[C@@H](CC(C)C)C(=O)N[C@@H](CCSC)C(=O)N[C@@H](CCCNC(=N)N)C(=O)N1CCC[C@H]1C(=O)N1CCC[C@H]1C(=O)N[C@@H](CC(N)=O)C(=O)N[C@@H](CCSC)C(=O)N[C@H](C(=O)N1CCC[C@H]1C(=O)N[C@@H](C)C(=O)N[C@H](C(=O)N[C@@H](CC(N)=O)C(=O)N[C@@H](C)C(N)=O)C(C)C)[C@@H](C)O", "assay": "refers to: HA-23 tetramer", "test system": "antigen-experienced tetramer+ CD4 T cells, healthy adults, HLA-DRB1*0101", "setting": "dose not given", "measurement": "α4β7+ CCR9+ cells", "value": "15%"}
{"Compound": "CC(C)C[C@@H](NC(=O)[C@H]1CCCN1C(=O)[C@H]1CCCN1C(=O)[C@@H](CCCNC(=N)N)NC(=O)[C@@H](CCCNC(=N)N)NC(=O)[C@@H](CCCNC(=N)N)NC(=O)[C@@H](CCC(N)=O)NC(=O)[C@@H](CCCNC(=N)N)NC(=O)[C@@H](CCCNC(=N)N)NC(=O)[C@@H](CCCCN)NC(=O)[C@@H](CCCCN)NC(=O)[C@@H](CCCNC(=N)N)NC(=O)CNC(=O)[C@H](N)Cc1ccc(O)cc1)C(=O)N[C@H](CCCNC(=N)N)C(=O)N[C@H](CCCCN)C(=O)N[C@H](CCCCN)C(=O)N[C@H](CCCCN)C(=O)N[C@H](CCCCN)C(=O)N[C@H](CCCCN)C(=O)N[C@H](Cc1c[nH]cn1)C(N)=O", "assay": "8-Br-cGMP induced dilation", "test system": "mouse, isolated mesenteric arteries", "setting": "intraperitoneal, 10 nmol, 30 min, together with: 50 µM 8-Br-cGMP", "measurement": "vasodilation", "value": "12%"}
{"Compound": "CC(=O)N1CCC(NC(=O)C(N)Cc2c(C)cc(O)cc2C)c2cc(CN3CCc4ccccc4C3)ccc21 (stereo not shown)", "assay": "warm water tail withdrawal", "test system": "C57BL/6 mice", "setting": "intraperitoneal, 10 mg/kg cumulative", "measurement": "duration of antinociception", "value": "200 min"}
{"Compound": "CC[C@H](C)[C@H](NC(=O)[C@H](CCC(=O)O)NC(=O)[C@H](Cc1ccc(I)cc1)NC(=O)[C@@H](C)NC(=O)[C@@H](N)Cc1ccc(O)cc1)C(=O)N[C@H](C(=O)NCC(N)=O)[C@@H](C)CC", "assay": "analgesia, radiant heat tail flick", "test system": "CD1 mouse", "setting": "intracerebroventricular, 15 min", "measurement": "ED50", "value": "0.3 µg"}
{"Compound": "O=C1C=CC(=O)C(c2cc(Cl)ccc2Cl)=C1", "test system": "C57BL/6 mouse B16 melanoma", "setting": "po, 3 mg/kg daily, 5 days/week", "measurement": "tumour growth inhibition", "value": "~83%"}
{"Compound": "C[C@@H](NC(=O)[C@@H](CCC(N)=O)NC(=O)[C@@H](C)NC(=O)[C@@H](CCCCN)NC(=O)[C@@H](CCC(N)=O)NC(=O)[C@@H](C)NC(=O)[C@@H](CCCCN)NC(=O)[C@@H](CCC(N)=O)NC(=O)[C@@H](C)NC(=O)[C@@H](CCC(N)=O)NC(=O)[C@@H](CCCCN)NC(=O)[C@@H](C)NC(=O)[C@@H](CCC(N)=O)NC(=O)[C@@H](CCCCN)NC(=O)[C@@H](C)NC(=O)[C@@H](CCC(N)=O)NC(=O)[C@@H](C)NC(=O)[C@@H](CCCCN)NC(=O)[C@@H](CCC(N)=O)NC(=O)[C@@H](C)NC(=O)[C@@H](CCCCN)NC(=O)[C@@H](CO)NC(=O)[C@@H](Cc1ccc(O)cc1)NC(=O)CNC(=O)CNC(=O)CN)C(=O)N[C@H](CCCCN)C(=O)N[C@H](CCC(N)=O)C(=O)N[C@H](C)C(=O)N[C@H](CCCCN)C(=O)N[C@H](CCC(N)=O)C(=O)O", "assay": "binding", "test system": "AA amyloid mouse liver homogenate", "setting": "1 h, room temperature", "measurement": "bound fraction", "value": "92%"}
{"Compound": "CC[C@H](C)[C@@H]1NC(=O)[C@@H](NC(=O)CNC(=O)c2ccc(F)cc2)CSSC[C@@H]2NC(=O)[C@H](C)NC(=O)CNC(=O)[C@@H]3CCCN3C(=O)[C@@H]3CSSC[C@@H](C(=O)NCC(=O)O)NC(=O)[C@H](Cc4ccc(O)cc4)NC(=O)CNC(=O)[C@H](CC(N)=O)NC(=O)CNC(=O)[C@H](CCCNC(=N)N)NC(=O)[C@H](CSSC[C@H](NC(=O)[C@H](CCCNC(=N)N)NC(=O)[C@H](Cc4ccccc4)NC(=O)[C@H](CC(C)C)NC(=O)[C@H](CC(C)C)NC(=O)[C@H]([C@@H](C)O)NC(=O)CNC(=O)[C@H](CC(C)C)NC(=O)[C@H](CC(=O)O)NC(=O)[C@H]([C@@H](C)O)NC(=O)[C@H](CCCNC(=N)N)NC(=O)[C@H](CCSC)NC(=O)[C@H](CC(N)=O)NC(=O)[C@H](CC(C)C)NC1=O)C(=O)N[C@@H](CCCNC(=N)N)C(=O)N[C@@H](CCCNC(=N)N)C(=O)N[C@@H](CC(=O)O)C(=O)N[C@@H](CO)C(=O)N[C@@H](CC(=O)O)C(=O)N3)NC(=O)[C@H]([C@@H](C)CC)NC2=O [fluorine-18 labelled]", "assay": "PET", "test system": "mouse, BXPC-3 xenograft", "setting": "intravenous, 1 h", "measurement": "tumour uptake", "value": "1.9 ± 0.5 %ID/g"}
{"Compound": "COC[C@@H](NC(C)=O)C(=O)NCc1ccc(OCc2ccc(Cl)cc2)cc1", "assay": "maximal electroshock seizure test", "test system": "mouse", "setting": "ip, time of peak effect", "measurement": "ED50", "value": "7.2 mg/kg"}
{"Compound": "CCN(Cc1ccccc1)C(=O)CCc1nc(CN2CCN(C(=O)Cc3ccc(OC)c(OC)c3)CC2)no1", "assay": "current clamp", "test system": "L4-L6 DRG neurons, rat CCI model", "setting": "1 µM, together with: 500 pA current injection", "measurement": "action potential threshold", "value": "-10.5 ± 2.34 mV"}
{"Compound": "C[C@H](NC(=O)[C@H](CCC(N)=O)NC(=O)[C@H](CCCCN)NC(=O)[C@H](C)NC(=O)[C@@H]1CCCN1C(=O)[C@H](C)NC(=O)[C@H](CCCCN)NC(=O)[C@H](CCC(N)=O)NC(=O)[C@H](C)NC(=O)[C@H](CCCCN)NC(=O)[C@H](CCC(N)=O)NC(=O)[C@@H]1CCCN1C(=O)[C@H](CCC(N)=O)NC(=O)[C@H](CCCCN)NC(=O)[C@H](C)NC(=O)[C@H](CCC(N)=O)NC(=O)[C@H](CCCCN)NC(=O)[C@H](C)NC(=O)[C@@H]1CCCN1C(=O)[C@H](C)NC(=O)[C@H](CCCCN)NC(=O)[C@H](CCC(N)=O)NC(=O)[C@H](C)NC(=O)[C@H](CCCCN)NC(=O)[C@H](CO)NC(=O)[C@H](Cc1ccc(O)cc1)NC(=O)CNC(=O)CNC(=O)CN)C(=O)N[C@@H](CCCCN)C(=O)N[C@@H](CCC(N)=O)C(=O)O", "assay": "binding", "test system": "AA amyloid mouse liver homogenate", "setting": "1 h, room temperature", "measurement": "bound fraction", "value": "11%"}
{"Compound": "C=C(NC(=O)C(=C)NC(=O)c1csc(C2=NC3c4csc(n4)C4NC(=O)c5csc(n5)C(C(C)(O)C(C)O)NC(=O)C5CSC(=N5)C(=CC)NC(=O)C(C(C)O)NC(=O)c5csc(n5)C3(CC2)NC(=O)C(C)NC(=O)C(=C)NC(=O)C(C(C)CC)NC2C=Cc3c(C(C)O)cc(nc3C2O)C(=O)OC4C)n1)C(N)=O (stereo not shown)", "assay": "protein synthesis, coupled transcription-translation, refers to: luciferase", "test system": "Escherichia coli S30 extract", "setting": "1 h, 37 °C", "measurement": "IC50", "value": "8.1 ± 1 µM"}
{"Compound": "CC(C)C[C@@H]1NC(=O)[C@H](C(C)C)NC(=O)[C@H](CO)NC(=O)CNC(=O)CNC(=O)[C@H](CCCNC(=N)N)NC(=O)[C@@H]2CCCN2C(=O)[C@@H](NC(=O)CC[C@H](NC(=O)c2ccc(N(C)Cc3cnc4nc(N)nc(N)c4n3)cc2)C(=O)O)C(C)(C)SSC[C@@H](C(=O)O)NC(=O)CNC(=O)[C@H]([C@@H](C)O)NC(=O)[C@H](C(C)C)NC1=O", "test system": "rat adjuvant arthritis", "setting": "iv, 5 mg/kg once daily, day 14", "measurement": "liver weight", "value": "4.86 ± 0.205 g"}
{"Compound": "Cc1ccc(/C=C/C(=O)O)cc1-c1cc2c(cc1C)C(C)(C)CCC2(C)C", "assay": "RNA sequencing, refers to: Abca1 mRNA", "test system": "rat, brain", "setting": "dose not given, 24 h, single dose", "how to read": "relative to: vehicle", "measurement": "log2 fold change", "value": 0.19}
